Measured values gathered from unrelated publications.
Each line is one published result; not all experiments were run side by side. Values joined by “and” are separate records of one study, mostly repeats; a detail may differ. Numbers after ± are the reported error.
Cell line: MCF7

Molecule	assay	conditions	scale	quantity	result
C/C(=N\N=C1/NC(=O)/C(=C\c2ccc(Cl)cc2)S1)c1ccccn1	cell growth, SRB	100 µg/mL, 48 h		inhibition	> 70%
COc1c(C)c(C)c2c(c1C)CCC(C)(C(=O)NN=C1C(=O)Nc3ccc(F)cc31)O2 (centres unmarked)	cell growth or viability, SRB	48 h		GI50	> 100 µM
C/C(=N\N=c1/[nH]c(C)c(/N=N/c2ccc(C)cc2)s1)c1ccccn1	cell growth or viability, SRB	100 µg/mL, 48 h		inhibition	67.6%
Cc1c(C)c2c(c(C)c1O)CCC(C)(C(=O)NN=C1C(=O)N(C)c3ccccc31)O2 (centres unmarked)	cell growth or viability, SRB	48 h		GI50	> 100 µM
CCCCCCCCCCCCCCCC(=O)N[C@@H](CO)C(=O)N[C@@H](CCCNC(=N)N)C(=O)N[C@@H](CC(C)C)C(=O)NCC(=O)N[C@@H](CC(N)=O)C(=O)NCC(=O)N[C@H](C(=O)N[C@@H](CC(C)C)C(=O)N[C@@H](Cc1ccc(O)cc1)C(N)=O)C(C)C		48 h, 1% FBS		TGI	2 ± 0.1 µM
C#C[C@@]1(O)[C@@H](CO)O[C@@H](n2cc(Cl)c3c(N)ncnc32)[C@@H]1O	cell growth or viability, SRB	48 h		GI50	0.027 µM
CCCCCCCCCCCCCCCC(=O)N[C@@H](Cc1c[nH]cn1)C(=O)N[C@@H](CCCNC(=N)N)C(=O)N[C@@H](CCCCN)C(=O)N[C@@H](CCCNC(=N)N)C(=O)N[C@@H](CC(N)=O)C(=O)N[C@@H](CC(N)=O)C(=O)N[C@@H](CO)C(=O)N[C@@H](CCCNC(=N)N)C(=O)N[C@@H](CC(C)C)C(=O)NCC(=O)N[C@@H](CC(N)=O)C(=O)NCC(=O)N[C@H](C(=O)N[C@@H](CC(C)C)C(=O)N[C@@H](Cc1ccc(O)cc1)C(=O)N[C@@H](C)C(=O)N[C@@H](CO)C(N)=O)C(C)C		48 h, 1% FBS		TGI	4.1 ± 0.3 µM
Cc1c(C)c2c(c(C)c1O)CCC(C)(C(=O)NN=C1C(=O)Nc3cc(Cl)ccc31)O2 (centres unmarked)	cell growth or viability, SRB	48 h		GI50	46.9 µM
O=C(CN1CCN(c2ccccc2O)CC1)Nc1nc2ccccc2s1	cell growth or viability, MTT	100 µM, 72 h		inhibition	54.1%
insulin icodec	glycogen synthesis, agonist, [14C]glucose incorporation	0% HSA		EC50	4.86 µM
O=C(CN1CCN(CC(=O)Nc2nc3ccccc3s2)CC1)Nc1ccc([N+](=O)[O-])cc1	cell growth or viability, MTT	100 µM, 72 h		inhibition	85%
Cc1c(C)c2c(c(C)c1OCc1ccccc1)CCC(C)(C(=O)NN=C1C(=O)Nc3ccc(F)cc31)O2 (centres unmarked)	cell growth or viability, SRB	48 h		GI50	64.1 µM
CCCCCCCCCCCCCCCC(=O)N[C@H](C(=O)N[C@@H](Cc1ccccc1)C(=O)N[C@@H](Cc1c[nH]cn1)C(=O)N[C@@H](CCCNC(=N)N)C(=O)N[C@@H](CCCCN)C(=O)N[C@@H](CCCNC(=N)N)C(=O)N[C@@H](CC(N)=O)C(=O)N[C@@H](CC(N)=O)C(=O)N[C@@H](CO)C(=O)N[C@@H](CCCNC(=N)N)C(=O)N[C@@H](CC(C)C)C(=O)NCC(=O)N[C@@H](CC(N)=O)C(=O)NCC(=O)N[C@H](C(=O)N[C@@H](CC(C)C)C(=O)N[C@@H](Cc1ccc(O)cc1)C(=O)N[C@@H](C)C(=O)N[C@@H](CO)C(=O)N[C@H](C(=O)N[C@@H](CC(N)=O)C(N)=O)C(C)C)C(C)C)C(C)C		48 h, 1% FBS		TGI	1.1 ± 0.1 µM
CN(C)C(=O)c1cc2cnc(Nc3ccc(N4CCNCC4)cn3)nc2n1C1CCCC1	refers to: phospho-pRb	up to 3.16 µM		time to cell cycle re-entry	≤ 48 h
O=C(CNc1ccc(F)cc1)Nc1nc2ccccc2s1	cell growth or viability, MTT	100 µM, 72 h		inhibition	18.3%
O=C(CC1Sc2ccccc2NC1=O)c1ccc(Cl)cc1 (centres unmarked)	propidium iodide flow cytometry	1.29 µM, 24 h		S phase cells	22.7%
Cc1c(C)c2c(c(C)c1O)CCC(C)(C(=O)NN=C1C(=O)Nc3ccccc31)O2 (centres unmarked)	cell growth or viability, SRB	48 h		GI50	37.1 µM
COc1ccc(/C=C2/S/C(=N/N=C(\C)c3ccccn3)NC2=O)cc1	cell growth or viability, SRB	100 µg/mL, 48 h		inhibition	51.5%
CS(=O)(=O)N1CCN(Cc2cc3nc(-c4cccc5[nH]ncc45)nc(N4CCOCC4)c3s2)CC1	sulforhodamine B	1 to 2 µM, 3-6 h exposure, washout, read 120 h		viability decrease	≥ 50%
CCCCCCCCCCCCCCCC(=O)N[C@@H](CCCNC(=N)N)C(=O)N[C@@H](CC(N)=O)C(=O)N[C@@H](CC(N)=O)C(=O)N[C@@H](CO)C(=O)N[C@@H](CCCNC(=N)N)C(=O)N[C@@H](CC(C)C)C(=O)NCC(=O)N[C@@H](CC(N)=O)C(=O)NCC(=O)N[C@H](C(=O)N[C@@H](CC(C)C)C(=O)N[C@@H](Cc1ccc(O)cc1)C(=O)N[C@@H](C)C(=O)N[C@@H](CO)C(=O)N[C@H](C(=O)N[C@@H](CC(N)=O)C(N)=O)C(C)C)C(C)C		48 h, 1% FBS		TGI	0.4 ± 0.02 µM
insulin human	DNA synthesis, agonist, 3H-thymidine incorporation	HSA 0%		EC50	0.0028 µM
COC(=O)c1ccc(NC(=O)CNNc2nc3ccccc3c(=O)n2-c2ccccc2)cc1	annexin V/PI staining	2.5 µM, 24 h, Total apoptosis		apoptotic cells	26.6%

Molecule	assay	conditions	scale	quantity	result
CC(=O)c1s/c(=N/N=C(\C)c2ccccn2)[nH]c1C	cell growth or viability, SRB	100 µg/mL, 48 h		inhibition	63.3%
CCCCCCCCCCCCCCCC(=O)N[C@@H](CCCCN)C(=O)N[C@@H](CCCNC(=N)N)C(=O)N[C@@H](CC(N)=O)C(=O)N[C@@H](CC(N)=O)C(=O)N[C@@H](CO)C(=O)N[C@@H](CCCNC(=N)N)C(=O)N[C@@H](CC(C)C)C(=O)NCC(=O)N[C@@H](CC(N)=O)C(=O)NCC(=O)N[C@H](C(=O)N[C@@H](CC(C)C)C(=O)N[C@@H](Cc1ccc(O)cc1)C(N)=O)C(C)C		48 h, 1% FBS		TGI	2.5 ± 0.5 µM
COc1cc(-c2noc(-c3cccs3)c2C(F)(F)F)cc(OC)c1OC	PI flow cytometry	IC50, 48 h		cells in S-phase	1.5%
CCn1c(-c2ccccc2)cs/c1=N/N=C(\C)c1ccccn1	cell growth or viability, SRB	100 µg/mL, 48 h		inhibition	53.7%
C[C@H]1c2cccc(O)c2C(=O)C2=C(O)[C@]3(O)C(=O)C(C(N)=O)=C(O)[C@@H](N(C)C)[C@@H]3[C@@H](O)[C@@H]21	caspase-3/7 flow cytometry, refers to: early plus late apoptosis	IC50, 24 h		apoptotic cells	97.4%
CCn1c(C)c(/N=N/c2ccc(C)cc2)s/c1=N/N=C(\C)c1ccccn1	cell growth or viability, SRB	100 µg/mL, 48 h		inhibition	52.9%
CC(=NNC(=S)NN=C(C(=NO)c1ccccc1)c1ccccc1)c1ccccc1C	Western blot, refers to: HO-1	IC50 concentration, 24 h	reference: untreated	relative protein level	1.56 ± 0.06
[Au(mba)(PPh3)]	PrestoBlue viability	72 h		EC50	2.4 µM and 2.36 µM
CCN1C(=O)/C(=C\c2ccc(Cl)cc2)S/C1=N/N=C(\C)c1ccccn1	cell growth or viability, SRB	100 µg/mL, 48 h		inhibition	59.5%
O=C(CN1CCN(c2ccc([N+](=O)[O-])cc2)CC1)Nc1nc2ccccc2s1	cell growth or viability, MTT	100 µM, 72 h		inhibition	35%
COc1c(C)c(C)c2c(c1C)CCC(C)(C(=O)NN=C1C(=O)Nc3ccccc31)O2 (centres unmarked)	cell growth or viability, SRB	48 h		GI50	45.1 µM
C[C@]12CC[C@@H]3c4ccc(O)cc4C[C@@H](CCCCCCCCC[S+]([O-])CCCC(F)(F)C(F)(F)F)[C@H]3[C@@H]1CC[C@@H]2O (some centres unmarked)		concentration not given, colony formation and migration		cell proliferation	inhibited
COc1c(C)c(C)c2c(c1C)CCC(C)(C(=O)NN=C1C(=O)Nc3ccc(Br)cc31)O2 (centres unmarked)	cell growth or viability, SRB	48 h		GI50	34.7 µM
NCCC(=O)Nc1ccccc1/N=c1\cc(-c2ccc3nc(N)oc3c2)oc2ccc(F)cc12	cell growth or viability, CCK-8	1 µM		inhibition	> 70%
NS(=O)(=O)c1ccc(NC(=O)CNNc2nc3ccccc3c(=O)n2-c2ccccc2)cc1	annexin V/PI staining	2.5 µM, 24 h, Total apoptosis		apoptotic cells	19.3%
CCCCCCCCCCCCCCCC(=O)N[C@@H](CCCNC(=N)N)C(=O)N[C@@H](CC(N)=O)C(=O)N[C@@H](CC(N)=O)C(=O)N[C@@H](CO)C(=O)N[C@@H](CCCNC(=N)N)C(=O)N[C@@H](CC(C)C)C(=O)NCC(=O)N[C@@H](CC(N)=O)C(=O)NCC(=O)N[C@H](C(=O)N[C@@H](CC(C)C)C(=O)N[C@@H](Cc1ccc(O)cc1)C(N)=O)C(C)C		48 h, 1% FBS		TGI	0.5 ± 0.02 µM
O=C(CN1CCN(c2cccc(O)c2)CC1)Nc1nc2ccccc2s1	cell growth or viability, MTT	100 µM, 72 h		inhibition	4.5%
CCN1C(=O)C(C(C)=O)S/C1=N/N=C(\C)c1ccccn1 (centres unmarked)	cell growth or viability, SRB	100 µg/mL, 48 h		inhibition	63.2%
O=C(CN1CCOCC1)Nc1nc2ccccc2s1	cell growth or viability, MTT	100 µM, 72 h		inhibition	2.74%
CCOC(=O)c1ccc(N2C(=O)C(c3ccccc3)N(c3ccccc3)C2=O)cc1 (centres unmarked)	Annexin V/PI flow cytometry	IC50 concentration, 72 h		apoptotic cells	49.4%
Cc1c(C)c2c(c(C)c1OCc1ccccc1)CCC(C)(C(=O)NN=C1C(=O)N(C)c3ccc(Cl)cc31)O2 (centres unmarked)	cell growth or viability, SRB	48 h		GI50	77.9 µM
N=C(N)NS(=O)(=O)c1ccc(NCC(=O)Nc2nc3ccccc3s2)cc1	cell growth or viability, MTT	100 µM, 72 h		inhibition	10.2%
